{"data": "Results of several laboratories", "note": "Numbered parts are unrelated; each lists some results of a single study. Substitutions count along the parent as printed.", "UniProt Q9NY57, sequence (whole entry, looked up)": "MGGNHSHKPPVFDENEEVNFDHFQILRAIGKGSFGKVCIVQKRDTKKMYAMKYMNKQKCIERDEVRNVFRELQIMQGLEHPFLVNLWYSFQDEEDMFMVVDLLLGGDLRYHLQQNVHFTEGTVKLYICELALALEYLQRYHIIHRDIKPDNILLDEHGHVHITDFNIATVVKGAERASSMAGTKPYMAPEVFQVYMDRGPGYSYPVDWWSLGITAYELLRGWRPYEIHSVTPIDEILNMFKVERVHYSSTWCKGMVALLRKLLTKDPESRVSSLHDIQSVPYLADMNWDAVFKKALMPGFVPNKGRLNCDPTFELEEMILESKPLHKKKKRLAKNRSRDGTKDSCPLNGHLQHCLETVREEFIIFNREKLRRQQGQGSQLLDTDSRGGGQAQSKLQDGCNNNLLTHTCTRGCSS", "UniProt Q8NE63, sequence (whole entry, looked up)": "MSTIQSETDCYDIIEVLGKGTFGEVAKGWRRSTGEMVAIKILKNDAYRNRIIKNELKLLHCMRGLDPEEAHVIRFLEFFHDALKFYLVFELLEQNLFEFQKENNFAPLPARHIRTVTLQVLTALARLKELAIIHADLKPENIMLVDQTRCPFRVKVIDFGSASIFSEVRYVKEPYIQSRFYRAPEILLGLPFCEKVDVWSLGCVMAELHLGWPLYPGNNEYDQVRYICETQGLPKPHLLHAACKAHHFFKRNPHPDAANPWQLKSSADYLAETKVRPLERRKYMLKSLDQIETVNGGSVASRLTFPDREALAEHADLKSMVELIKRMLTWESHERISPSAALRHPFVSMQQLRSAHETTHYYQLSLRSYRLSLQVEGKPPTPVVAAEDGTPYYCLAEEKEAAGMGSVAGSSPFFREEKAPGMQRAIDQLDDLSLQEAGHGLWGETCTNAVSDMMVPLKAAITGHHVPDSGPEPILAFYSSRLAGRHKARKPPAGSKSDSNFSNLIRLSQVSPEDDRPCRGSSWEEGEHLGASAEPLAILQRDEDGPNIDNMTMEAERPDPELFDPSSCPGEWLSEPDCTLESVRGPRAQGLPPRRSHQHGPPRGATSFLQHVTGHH", "UniProt P22607, sequence (whole entry, looked up)": "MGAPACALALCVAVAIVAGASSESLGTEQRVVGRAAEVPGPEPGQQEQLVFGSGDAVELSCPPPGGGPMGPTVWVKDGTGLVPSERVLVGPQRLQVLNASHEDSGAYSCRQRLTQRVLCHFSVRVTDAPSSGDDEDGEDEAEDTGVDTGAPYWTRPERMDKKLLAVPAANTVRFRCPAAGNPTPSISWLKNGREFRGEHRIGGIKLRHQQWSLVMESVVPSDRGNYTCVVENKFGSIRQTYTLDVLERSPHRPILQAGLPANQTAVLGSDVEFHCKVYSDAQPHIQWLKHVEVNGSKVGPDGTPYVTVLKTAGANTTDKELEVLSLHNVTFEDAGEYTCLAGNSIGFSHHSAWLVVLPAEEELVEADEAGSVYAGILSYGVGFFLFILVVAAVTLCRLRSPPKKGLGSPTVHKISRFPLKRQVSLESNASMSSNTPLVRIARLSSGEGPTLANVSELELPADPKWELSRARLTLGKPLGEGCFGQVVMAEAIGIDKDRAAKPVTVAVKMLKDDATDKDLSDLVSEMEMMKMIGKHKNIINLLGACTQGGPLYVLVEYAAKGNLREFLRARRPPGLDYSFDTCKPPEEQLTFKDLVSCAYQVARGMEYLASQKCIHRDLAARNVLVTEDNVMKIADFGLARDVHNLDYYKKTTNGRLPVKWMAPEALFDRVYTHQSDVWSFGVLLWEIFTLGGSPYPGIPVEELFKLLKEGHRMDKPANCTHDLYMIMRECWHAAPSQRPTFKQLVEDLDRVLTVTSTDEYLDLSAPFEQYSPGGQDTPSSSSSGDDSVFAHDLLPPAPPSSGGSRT"}
{"data": "Set 1", "target": "FOSB, bZIP domain (human)", "method": "DHFR protein complementation", "matrix": "yeast", "setting": "single substitutions, most at no-binding floor", "reference": "wild-type JUN-FOS pair", "reading": "higher = stronger binding", "starting sequence": "JUN, bZIP domain (human); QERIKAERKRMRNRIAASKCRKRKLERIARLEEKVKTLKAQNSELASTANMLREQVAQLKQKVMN; partner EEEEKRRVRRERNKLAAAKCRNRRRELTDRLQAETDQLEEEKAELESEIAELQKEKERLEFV"}
{"Variant": "K36G", "binding fitness": "-0.218 natural log"}
{"Variant": "E33I", "binding fitness": "-0.304 natural log"}
{"Variant": "L31R", "binding fitness": "-0.777 natural log"}
{"Variant": "Q41H", "binding fitness": "-0.168 natural log"}
{"Variant": "T48C", "binding fitness": "-0.214 natural log"}
{"Variant": "N42D", "binding fitness": "-1.16 natural log"}
{"Variant": "L45Y", "binding fitness": "-0.646 natural log"}
{"Variant": "A29H", "binding fitness": "-0.152 natural log"}
{"data": "Set 2", "target": "Tyrosine-protein kinase ABL2 (ABL2, Homo sapiens, UniProt P42684)", "read-out": "enzyme activity", "action": "inhibitor", "tested at": "0.5 µM", "reference": "control", "UniProt P42684, sequence (whole entry, looked up)": "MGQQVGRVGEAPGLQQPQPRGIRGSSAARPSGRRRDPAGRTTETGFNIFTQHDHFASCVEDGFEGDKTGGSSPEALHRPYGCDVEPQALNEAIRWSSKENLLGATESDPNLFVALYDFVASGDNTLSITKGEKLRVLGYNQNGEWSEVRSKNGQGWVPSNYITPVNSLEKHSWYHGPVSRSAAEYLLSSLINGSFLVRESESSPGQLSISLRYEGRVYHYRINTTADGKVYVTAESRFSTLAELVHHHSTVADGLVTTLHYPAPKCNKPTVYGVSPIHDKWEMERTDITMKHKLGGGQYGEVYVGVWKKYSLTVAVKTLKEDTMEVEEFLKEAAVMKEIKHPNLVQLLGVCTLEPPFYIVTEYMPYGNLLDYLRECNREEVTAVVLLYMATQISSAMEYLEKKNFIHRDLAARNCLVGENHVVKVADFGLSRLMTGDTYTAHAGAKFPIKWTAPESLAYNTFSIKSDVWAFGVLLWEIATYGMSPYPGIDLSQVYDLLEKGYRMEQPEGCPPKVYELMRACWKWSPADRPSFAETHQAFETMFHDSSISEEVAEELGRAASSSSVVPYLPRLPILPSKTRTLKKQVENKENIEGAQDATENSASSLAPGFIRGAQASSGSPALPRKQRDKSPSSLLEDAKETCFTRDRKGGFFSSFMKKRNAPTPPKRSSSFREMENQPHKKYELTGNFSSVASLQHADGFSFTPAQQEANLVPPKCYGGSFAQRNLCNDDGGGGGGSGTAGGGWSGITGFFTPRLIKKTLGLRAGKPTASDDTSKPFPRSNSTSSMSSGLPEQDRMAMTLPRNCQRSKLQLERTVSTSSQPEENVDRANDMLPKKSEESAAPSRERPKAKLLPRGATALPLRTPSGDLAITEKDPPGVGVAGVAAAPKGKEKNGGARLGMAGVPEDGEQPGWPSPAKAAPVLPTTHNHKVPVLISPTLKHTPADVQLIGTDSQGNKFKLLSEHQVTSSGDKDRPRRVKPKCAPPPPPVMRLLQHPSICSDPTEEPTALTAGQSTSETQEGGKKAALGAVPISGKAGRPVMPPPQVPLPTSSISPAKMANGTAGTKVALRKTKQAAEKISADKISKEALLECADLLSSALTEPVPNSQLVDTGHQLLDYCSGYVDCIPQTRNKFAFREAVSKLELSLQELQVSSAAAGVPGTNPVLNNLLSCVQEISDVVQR"}
{"SMILES": "NCCNc1ncc(C(N)=O)c(Nc2cccc(C(F)(F)F)c2)n1", "remaining activity": "88.7%"}
{"SMILES": "CO[C@H]1C[C@@H]2CC[C@@H](C)[C@@](O)(O2)C(=O)C(=O)N2CCCC[C@H]2C(=O)O[C@H]([C@H](C)C[C@@H]2CC[C@@H](O)[C@H](OC)C2)CC(=O)[C@H](C)/C=C(\\C)[C@@H](O)[C@@H](OC)C(=O)[C@H](C)C[C@H](C)/C=C/C=C/C=C/1C", "remaining activity": "94.2%"}
{"SMILES": "Cn1sc(=O)n(Cc2ccccc2)c1=O", "remaining activity": "96.7%"}
{"SMILES": "O=S(=O)(c1cccc2cnccc12)N1CCCNCC1", "remaining activity": "87.6%"}
{"SMILES": "O=C1NC(=O)C(c2cn(CCCn3ccnc3)c3ccccc23)=C1Nc1ccccc1", "remaining activity": "91.8%"}
{"SMILES": "Nc1ccc2ncnc(NCCc3ccc(Oc4ccccc4)cc3)c2c1", "remaining activity": "102%"}
{"SMILES": "O=C(O)c1ccc2c3c1cccc3c(=O)n1c3ccccc3nc21", "remaining activity": "100%"}
{"SMILES": "Cc1ccc(Nc2nccc(N(C)c3ccc4c(C)n(C)nc4c3)n2)cc1S(N)(=O)=O", "remaining activity": "38.5%"}
{"SMILES": "COc1ccc(C(=O)Nc2sc3c(c2C(N)=O)CCCC3)cc1OC", "remaining activity": "101%"}
{"SMILES": "OCC(O)CCON=C1C(c2c(O)[nH]c3ccccc23)=Nc2ccccc21 (stereo not shown)", "remaining activity": "38.5%"}
{"SMILES": "Cc1nc(-c2ccccc2)c(-c2ccncc2)o1", "remaining activity": "92.8%"}
{"SMILES": "CNC(=O)c1cc(Oc2ccc(NC(=O)Nc3ccc(Cl)c(C(F)(F)F)c3)cc2)ccn1", "remaining activity": "99.4%"}
{"data": "Set 3", "target": "Fragile X messenger ribonucleoprotein 1, C-terminal low-complexity region (Fmr1, Mus musculus, UniProt P35922)", "method": "RNA Bind-n-Seq", "molecule type": "RNA", "matrix": "in vitro", "tested at": "200 nM", "setting": "whole 134-nt RNA, ends assumed", "together with": "150 mM LiCl", "reference": "input library", "reading": "higher = stronger binding", "each molecule": "7-deaza-guanosine replaces G", "shared flanks, not repeated": "GGGAGUUCUACAGUCCGACGAUC … UGGAAUUCUCGGGUGUCAAGG"}
{"Strand": "CACAGACAACACGCACCCACACAGACACAGAGGGAAGGGGUUGGGAUGGGAAAAGGGUGCACAGCAGGGCGGGGUAGGACCCCAGCCCCU", "log2 enrichment": 0.362}
{"Strand": "CACAGACAACACGCACCCACACAGACACAGAGGGAAGGGGUUGGGAUGGGGACAGGGUGCAAAACAGGGCGGGGUAGGACCCCAGCCCCU", "log2 enrichment": 0.0907}
{"Strand": "GUCCUGUGCUACACAUCGUAUGUACCGAAUCGGGUGGGAAAAAAAGGGUUUUUUUGGGAAAGUAUUAUGUUACGCCGUUCGGAUCUGCAC", "log2 enrichment": -1.27}
{"Strand": "CCUGUGCUACACAUCGUAUGUACCGAAUCGGGCCCCCCGGGGCCCCCCGGGGCCCCCCGGGAAAGUAUUAUGUUACGCCGUUCGGAUCUG", "log2 enrichment": -2.5}
{"Strand": "CUCAAGUCCUGUGCUACACAUCGUAUGUACCGAAUCGGGGCCGGCCGGCCGGGAAAGUAUUAUGUUACGCCGUUCGGAUCUGCACUUCCA", "log2 enrichment": 1.08}
{"Strand": "CCUGUGCUACACAUCGUAUGUACCGAAUCGGGGCCCCCCCGGCCCCCCCGGCCCCCCCGGGAAAGUAUUAUGUUACGCCGUUCGGAUCUG", "log2 enrichment": 0.892}
{"Strand": "UGGCCCUGGUGGCAUGCGGGGAGGAGGAGGUGGCCUCAUGGAUCGUGGUGGUCCCGGUGGAAUGUUCAGAGGUGGCCGUGGUGGAGACAG", "log2 enrichment": 0.103}
{"Strand": "CCUGUGCUACACAUCGUAUGUACCGAAUCGGGGAAAAAAAGGGGUGGGGAAAAAAAGGGGAAAGUAUUAUGUUACGCCGUUCGGAUCUGC", "log2 enrichment": -1.4}
{"data": "Set 4", "Structure (SMILES)": "CN([C@@H]1CCc2c(CC(=O)O)c3ccccc3n2C1)S(=O)(=O)c1ccc(F)cc1", "read-out": "cell-free assay", "method": "competition with immobilised ligand", "tested at": "1 µM"}
{"target": "FGFR3 (Homo sapiens, UniProt P22607)", "remaining binding": "100%"}
{"target": "STK32B (Homo sapiens, UniProt Q9NY57)", "remaining binding": "100%"}
{"target": "HIPK4 (Homo sapiens, UniProt Q8NE63)", "remaining binding": "100%"}
{"note": "Some of these lines once more (set 4):"}
{"target": "FGFR3 (Homo sapiens, UniProt P22607)", "remaining binding": "100%"}
{"target": "STK32B (Homo sapiens, UniProt Q9NY57)", "remaining binding": "100%"}
{"target": "HIPK4 (Homo sapiens, UniProt Q8NE63)", "remaining binding": "100%"}
